{"data": "Measured values collected from several papers", "note": "Each numbered part is a random draw from the data of one study; scales do not carry over between parts."}
{"data": "Block 1", "target": "Sal-like protein 4, full length isoform A (SALL4, Homo sapiens, UniProt Q9UJQ4, residues 1-1053)", "method": "universal PBM", "form": "double-stranded DNA, one strand shown", "matrix": "in vitro", "tested at": "600 nM", "notes": "8-mer, flanks averaged, mean of replicates", "direction": "higher = stronger binding", "sequence of UniProt Q9UJQ4 (whole entry, looked up)": "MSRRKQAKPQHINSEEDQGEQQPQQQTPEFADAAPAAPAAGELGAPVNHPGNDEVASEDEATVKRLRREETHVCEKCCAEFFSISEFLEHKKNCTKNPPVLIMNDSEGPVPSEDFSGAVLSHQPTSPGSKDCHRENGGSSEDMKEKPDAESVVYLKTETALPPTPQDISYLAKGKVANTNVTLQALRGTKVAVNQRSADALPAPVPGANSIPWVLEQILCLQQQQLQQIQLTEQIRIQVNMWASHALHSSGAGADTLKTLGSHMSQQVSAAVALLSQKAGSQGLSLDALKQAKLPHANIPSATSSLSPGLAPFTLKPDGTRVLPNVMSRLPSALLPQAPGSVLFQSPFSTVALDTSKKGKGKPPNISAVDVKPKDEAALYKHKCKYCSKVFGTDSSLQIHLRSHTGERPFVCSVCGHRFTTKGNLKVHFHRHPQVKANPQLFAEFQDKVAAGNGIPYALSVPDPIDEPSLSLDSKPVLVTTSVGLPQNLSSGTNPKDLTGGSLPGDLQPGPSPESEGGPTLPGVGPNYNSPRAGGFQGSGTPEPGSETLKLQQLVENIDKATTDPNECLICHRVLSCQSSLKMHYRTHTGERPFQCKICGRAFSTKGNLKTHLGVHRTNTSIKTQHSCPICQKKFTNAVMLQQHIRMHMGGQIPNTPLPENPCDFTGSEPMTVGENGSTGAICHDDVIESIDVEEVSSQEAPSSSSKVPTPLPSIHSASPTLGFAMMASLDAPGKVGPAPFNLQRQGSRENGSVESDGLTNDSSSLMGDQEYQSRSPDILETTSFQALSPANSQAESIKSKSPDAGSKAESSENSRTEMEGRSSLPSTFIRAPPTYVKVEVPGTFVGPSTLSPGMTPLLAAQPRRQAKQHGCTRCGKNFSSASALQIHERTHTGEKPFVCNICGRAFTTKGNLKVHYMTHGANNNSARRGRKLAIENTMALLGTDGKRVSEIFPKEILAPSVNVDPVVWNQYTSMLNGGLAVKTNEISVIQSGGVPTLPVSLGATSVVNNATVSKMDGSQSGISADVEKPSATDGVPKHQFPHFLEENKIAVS"}
{"Strand": "AGCTGACA", "E-score": -0.102}
{"Strand": "CACGCTTC", "E-score": -0.324}
{"Strand": "CATCGCCC", "E-score": -0.327}
{"Strand": "GAATTGTA", "E-score": 0.112}
{"Strand": "ATCCGAGG", "E-score": -0.243}
{"Strand": "ATACGGAT", "E-score": 0.112}
{"Strand": "GGGCTGCA", "E-score": -0.0836}
{"Strand": "ACCTACGC", "E-score": -0.227}
{"Strand": "ACGTAACC", "E-score": -0.0346}
{"Strand": "ACGATACA", "E-score": 0.127}
{"Strand": "CAGTATGA", "E-score": 0.227}
{"data": "Block 2", "target": "Interferon regulatory factor 7, full length, phosphomimetic (IRF7, Homo sapiens, UniProt Q92985, residues 1-503, S101K/S471D/S472D/S475D/S476D/S477D/S483D/S484D/S487D)", "method": "protein-binding microarray", "form": "double-stranded DNA, one strand shown", "matrix": "in vitro", "tested at": "250 nM", "notes": "60-bp whole probe", "with": "salmon DNA 0.4 mg/ml", "reference": "random background probes", "direction": "higher = stronger binding", "all sequences stand within": "GCCTAGCAC … GTCTTGATTCGCTTGACGCTGCTG", "Construct (chain)": "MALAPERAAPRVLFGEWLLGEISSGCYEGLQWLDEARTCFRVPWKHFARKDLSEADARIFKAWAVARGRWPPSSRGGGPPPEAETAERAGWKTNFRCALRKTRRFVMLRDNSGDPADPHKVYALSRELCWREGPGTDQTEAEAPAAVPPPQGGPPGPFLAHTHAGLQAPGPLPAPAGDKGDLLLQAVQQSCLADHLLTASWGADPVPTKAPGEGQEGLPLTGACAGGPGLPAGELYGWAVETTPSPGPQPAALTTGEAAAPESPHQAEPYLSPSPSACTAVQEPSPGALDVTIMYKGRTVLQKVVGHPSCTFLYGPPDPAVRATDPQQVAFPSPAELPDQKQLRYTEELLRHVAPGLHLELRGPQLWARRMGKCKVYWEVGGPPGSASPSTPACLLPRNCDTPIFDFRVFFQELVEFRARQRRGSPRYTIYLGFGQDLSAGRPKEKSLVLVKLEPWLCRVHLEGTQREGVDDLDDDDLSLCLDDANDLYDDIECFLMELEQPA"}
{"Strand": "CTAATTTTTACTTTCTGAATGTGCTAG", "log fluorescence": "1.62 z-score"}
{"Strand": "GACGGTTTCGACACTGGGGAGGTGCTA", "log fluorescence": "3.69 z-score"}
{"Strand": "TTAGGTTTCGACTTTCGATTAGTGCTA", "log fluorescence": "11.8 z-score"}
{"Strand": "GACGGTATCCTTTTCCGGACGTGCTAG", "log fluorescence": "0.997 z-score"}
{"Strand": "ATGAGCCTCTGTTTTGAGCAGTGCTAG", "log fluorescence": "-0.193 z-score"}
{"Strand": "GACAGTATCCTACTGCTGACGTGCTAG", "log fluorescence": "0.114 z-score"}
{"Strand": "CTTCCTCTTTCTCTGCTACCGTGCTAG", "log fluorescence": "2.57 z-score"}
{"data": "Block 3", "target": "Histone acetyltransferase KAT6A, both winged helices, GST fusion (KAT6A, Homo sapiens, UniProt Q92794, residues 1-181)", "method": "protein binding microarray", "form": "double-stranded DNA, one strand shown", "matrix": "in vitro", "tested at": "not given", "notes": "8-mer, flanks averaged, mean of 2 arrays, mostly near background", "reference": "not given", "direction": "higher = stronger binding", "Target sequence (chain)": "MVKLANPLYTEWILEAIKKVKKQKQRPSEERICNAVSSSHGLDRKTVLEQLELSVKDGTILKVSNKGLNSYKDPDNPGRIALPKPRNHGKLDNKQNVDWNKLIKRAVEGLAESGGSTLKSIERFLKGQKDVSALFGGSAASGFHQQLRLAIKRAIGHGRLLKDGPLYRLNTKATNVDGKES"}
{"Strand": "CCCTGGAA", "E-score": -0.118}
{"Strand": "ACATCACC", "E-score": 0.0968}
{"Strand": "AGCCGCAT", "E-score": 0.161}
{"Strand": "GTACCTAC", "E-score": -0.118}
{"Strand": "AGACATAT", "E-score": -0.0147}
{"Strand": "AGATGCTA", "E-score": -0.179}
{"Strand": "CCGGTAGC", "E-score": 0.173}
{"data": "Single results of other studies"}
{"Molecule": "PhoQ, residues 284 288 289 292 302 303 ALVSVA", "target": "PhoP, residues 12 14 15 18 19 SYFRT (Escherichia coli, UniProt P23836)", "test": "Sort-seq, refers to: YFP reporter", "system": "E. coli", "setting": "PhoQ-PhoP variant library, with: 10 µM Mg2+", "how to read": "reference: high Mg2+ state, higher = stronger signaling", "endpoint": "fold induction", "result": 1.87}
{"note": "Repeated from above (block 3):"}
{"Strand": "ACATCACC", "E-score": 0.0968}
{"Strand": "AGCCGCAT", "E-score": 0.161}
{"Strand": "GTACCTAC", "E-score": -0.118}
